Published values pooled from the literature.
Compare with care: the assays were run in different laboratories. Values joined by “and” are separate records of one study, mostly repeats; a detail may differ.
Target: Serine/threonine-protein kinase NLK (NLK, Homo sapiens, UniProt Q9UBE8)
Sequence (Q9UBE8 1-527, as in one of the studies): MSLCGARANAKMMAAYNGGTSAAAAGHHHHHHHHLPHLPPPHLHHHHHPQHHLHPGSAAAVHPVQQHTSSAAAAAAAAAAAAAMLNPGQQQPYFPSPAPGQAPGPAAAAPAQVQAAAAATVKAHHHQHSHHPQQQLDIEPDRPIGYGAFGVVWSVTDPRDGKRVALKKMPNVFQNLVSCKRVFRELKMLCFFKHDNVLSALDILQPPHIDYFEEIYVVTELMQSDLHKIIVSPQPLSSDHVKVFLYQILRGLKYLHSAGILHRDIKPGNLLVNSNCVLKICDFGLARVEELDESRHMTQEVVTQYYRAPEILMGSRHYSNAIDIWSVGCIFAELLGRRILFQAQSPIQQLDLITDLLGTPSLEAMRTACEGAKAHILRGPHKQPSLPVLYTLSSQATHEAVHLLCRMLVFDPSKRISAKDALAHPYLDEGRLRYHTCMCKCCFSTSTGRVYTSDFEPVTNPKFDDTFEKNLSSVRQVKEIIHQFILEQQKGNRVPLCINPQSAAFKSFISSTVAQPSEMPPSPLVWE

Nc1ncc(-c2cc(-c3cnn(CC(F)(F)F)c3)ncc2F)nc1C(=O)NC1CNCC(F)C1 (centres unmarked)  remaining activity (enzyme activity; 1 µM; reference: DMSO control): 88.9%
COc1cc(Nc2nc(C)cc(-c3cnn4nc(OC)ccc34)n2)cc(C(F)(F)F)c1  remaining activity (inhibitor; 1 µM; reference: control): 100%
Cc1nc2c(F)cc(-c3nc(Nc4ccc(CNC(=O)CCCCCCC(=O)NO)cc4)ncc3F)cc2n1C(C)C  inhibition (enzyme activity, inhibitor; 1 µM): 68%
C=CC(=O)N1CCCC(n2c(=O)c3ncccc3n(Cc3ccc(Oc4ccccc4)cc3)c2=O)C1 (centres unmarked)  remaining binding (cell-free assay, competition with immobilised ligand; 1 µM): 100%
CCN1CCN(Cc2ccc(C(=O)Nc3ccc(C)c(NCc4cnc5[nH]ccc5c4OC)c3)cc2C(F)(F)F)CC1  remaining binding (binding, competition with immobilised ligand; 1 µM): 28%
CN1CC[C@@H](COc2cnc(C#N)cc2-c2ccn3nc(NC(=O)C4CC4)cc3c2)C1  inhibition (enzyme activity, inhibitor; 1 µM): 30%
O=C(Cc1ccc(OCc2ccccc2)cc1)NC1(C(=O)O)CCN(C(=O)c2ccc(-c3cccc(Cl)c3)cc2)CC1  activity vs control (enzyme activity, inhibitor; 10 µM): 103%
NC(=O)C[C@H]1CCc2sc3ncnc(O[C@H]4CC[C@H](N5CCOCC5)CC4)c3c21  inhibition (enzyme activity, inhibitor; 10 µM): -2%
CC(C)=CC1OC(C)(C)C2C=C3C(=O)C(Cl)=CC(O)C3C3C(O)C4OC4C(=O)C132 (centres unmarked)  remaining binding (cell-free assay, competition with immobilised ligand; 10 µM): 92%
COc1ccc(NC(=O)Nc2ccc3c(c2)C(=O)N(C(C)CO)CC(C)C(CN(C)Cc2ccc4c(c2)OCO4)O3)cc1 (centres unmarked)  remaining activity (kinase activity, KinaseProfiler; 0.03 µM, species human; reference: control): 106%
COCC12C(=O)NC3C4(C(OC)CC1O)C1CC5(O)C(OC)C(O)C(OC(C)=O)(C1C5OC(=O)c1ccccc1)C3(O)C(OC)C24 (centres unmarked)  remaining activity (kinase activity, inhibitor, ProQinase kinase profiling; 25 µM; reference: control): 101% and 113%
CNC1C[S+]2CC[S+]3CC[S+](C1)[Ru-4]321([N]=C=S)[n]2c3ccc(OC)cc3c3c4c(c5cc(F)c[n+]1c5c32)C(=O)NC4=O (centres unmarked)  remaining binding (KinomeScan; 0.1 µM; reference: untreated): 82%
C=CC(=O)Nc1cc(-c2nn(C3CCN(CCNC(=O)[C@H](C)CCC45CC6CC(CC(C6)C4)C5)CC3)c3ncnc(N)c23)ccc1Oc1ccccc1  inhibition (inhibitor, KiNativ profiling; biochemical; 2 µM): 22.7%
COc1c(OCCCN2CCOCC2)ccc2c1N=C(NC(=O)c1cnc(N)nc1)N1CCN=C21  remaining activity (kinase activity, inhibitor; 1 µM; reference: untreated control): 136%

Excerpt of the above:
CCN1CCN(Cc2ccc(C(=O)Nc3ccc(C)c(NCc4cnc5[nH]ccc5c4OC)c3)cc2C(F)(F)F)CC1  remaining binding (binding, competition with immobilised ligand; 1 µM): 28%
CN1CC[C@@H](COc2cnc(C#N)cc2-c2ccn3nc(NC(=O)C4CC4)cc3c2)C1  inhibition (enzyme activity, inhibitor; 1 µM): 30%
